Assay results of several laboratories.
Each line is one published result; not all experiments were run side by side. “And” joins repeats or separate records; there may be more than shown. Numbers after ± are the reported error.

SMILES	assay	system	setting	scale	measurement	value
CC(C)[C@H](NC(=O)CNC(=O)[C@H](CCC(N)=O)NC(=O)[C@H](C)N)C(=O)O	LC-MS/MS	human, male, plasma	intravenous, 30 mg/kg three times daily, day 1, first dose, 10 min infusion, geometric mean		half-life	14.4 min
Cc1ccccc1-c1cc(N2CCNCC2)ncc1N(C)C(=O)C(C)(C)c1cc(C(F)(F)F)cc(C(F)(F)F)c1		human plasma		unbound fraction	fu	< 0.03
NC12CNCCNCC(NCc3ccc(CNC(=O)CCCC(=O)NCc4ccc(-c5nncnn5)cc4)cc3)(CNCCNC1)CNCCNC2.[64Cu+2]	OLINDA dosimetry	total body	pretargeting, 24-h interval		mean absorbed dose	0.038 rad/mCi
CC1C(c2c(F)ccc(F)c2F)CC(N[14C](=O)c2cnc3c(c2)CC2(C3)C(=O)Nc3ncccc32)C(=O)N1CC(F)(F)F (stereo not shown)	refers to: total radioactivity	human, feces	through last collection	baseline: dose	fecal excretion	80.6% and ~81% and 81%
COc1cc(OC)cc(C2=C3C(C)=C(I)C(/C=C/c4c[nH]c5ccccc45)=[N+]3[B-](F)(F)n3c(/C=C/c4c[nH]c5ccccc45)c(I)c(C)c32)c1		DMSO			log molar absorptivity	4.39 M⁻¹ cm⁻¹
CCCC[C@@H]1NC(=O)[C@@H](NC(=O)[C@H](CCC(=O)O)NC(=O)CNC(=O)CN2CCN(CC(=O)O)CCN(CC(=O)O)CCN(CC(=O)O)CC2)CCCCNC(=O)C[C@@H](C(N)=O)NC(=O)[C@H](C(C)C)NC(=O)[C@@H]2CCCN2C(=O)[C@H](CCCNC(=N)N)NC(=O)CNC(=O)[C@H](Cc2c[nH]c3ccccc23)NC(=O)[C@H](CCCNC(=N)N)NC(=O)[C@@H](Cc2ccccc2)NC(=O)[C@H](Cc2c[nH]cn2)NC(=O)[C@H](CCC(=O)O)NC1=O [gallium-67 labelled]		C57 mice, B16/F1 flank melanoma, intestine	intravenous, 0.037 MBq/mouse, 0.5 h		intestine uptake	2.76 ± 1.34 %ID
COc1ccc(-c2ccn(CC[C@](C)(C(=O)NO)S(C)(=O)=O)c(=O)c2)c(F)c1		CF-1 mouse, female	subcutaneous, 75 mg/kg		AUC	17600 ± 2490 ng·h/mL
O=C(O)C1CN(Cc2ccc(-c3noc(-c4ccc(OCC[18F])c(C(F)(F)F)c4)n3)cc2)C1		C57BL/6 mouse LPS-treated	30 min post-injection	baseline: sham mice	liver uptake	increased
Cn1c(=O)oc2ccc(-c3ccc(CC(C#N)NC(=O)C4CNCCCO4)c(F)c3)cc21 (stereo not shown)	refers to: blood bilirubin increased	human	40 mg single dose, fasted		subjects with TEAE	8.3%
CCN(CC)c1ccc2c(-c3ccccc3C(=O)OCCOCCOCC[18F])c3ccc(=[N+](CC)CC)cc-3oc2c1	microPET	rat, liver	dose not given, 5 min post injection		radioactivity concentration	15 ± 2 kBq/cm³
Brc1ccc(Nc2nc(NN=Cc3c[nH]c4ccccc34)nc(N3CCOCC3)n2)cc1		mouse liver microsomes			CLint	177 mL/min/g protein
C=CC(=O)Nc1cc(Nc2nccc(-c3cn(C4CC4)c4ccccc34)n2)c(OC)cc1NC	radiolabelled metabolite profiling	human male, plasma	oral, 110 mg, 6 h		plasma concentration	7.61 ng/g
C=C(c1ncc(C(=O)O)cn1)c1cc2c(cc1C)C(C)(C)CCC2(C)C		Sprague-Dawley rat, male	oral, 100 mg/kg, 12 h, sesame oil vehicle		blood triglycerides	352 ± 355 mg/dL
CCCCN1C(=O)c2cccc3c(NCCCCCCCCN4CCOCC4)ccc(c23)C1=O		aqueous medium	pH 6		fluorescence brightness	2530 M⁻¹ cm⁻¹
COc1ccc(/C=C/C2=[N+]3C(=C(C=O)c4c(C)c(Br)c(/C=C/c5ccc(OC)cc5)n4[B-]3(F)F)C(C)=C2Br)cc1		acetonitrile	room temperature		luminescence quantum yield	2.5 ± 0.4%
Cc1ccccc1/N=N/c1ccc(/N=N/c2c(O)ccc3ccccc23)c(C)c1		Sprague-Dawley rats both sexes, whole blood	oral, 50 mg/kg		absorption rate constant	0.44 h⁻¹

Excerpt of the above:
SMILES	assay	system	setting	scale	measurement	value
Cc1ccccc1-c1cc(N2CCNCC2)ncc1N(C)C(=O)C(C)(C)c1cc(C(F)(F)F)cc(C(F)(F)F)c1		human plasma		unbound fraction	fu	< 0.03
CCCCN1C(=O)c2cccc3c(NCCCCCCCCN4CCOCC4)ccc(c23)C1=O		aqueous medium	pH 6		fluorescence brightness	2530 M⁻¹ cm⁻¹
